Measurements gathered from unrelated publications.
Lines come from different studies, so protocols differ. ± gives the spread as reported.

`CSCCNc1nc(SCCC(F)(F)F)nc2c1ncn2[C@@H]1O[C@H](COP(=O)(O)OP(=O)(O)C(Cl)(Cl)P(=O)(O)O)[C@@H](O)[C@H]1O`: “patients with IPA above threshold” 5.1% (platelet aggregation, light transmittance aggregometry; human, platelet-rich plasma; dose not given, 30 min, IPA above 90 %, added: TRAP 5 µM; relative to: patients).
`CC(=O)N[C@@H](CCCCN)C(=O)O` — result for “z-scored log2 fold change”: 0.14 (binding, equilibrium dialysis LC-MS; 5 µM, thermostabilized A2AR-BRIL construct; relative to: no-protein control, direction not given).
The sarcomere length of `CC(C)NCC(O)c1ccc(O)c(O)c1` (centres unmarked) is reported as 1.5 µm (ventricular cardiomyocytes, C57BL/6 mouse; dose not given, 0.86 s).
`COc1cc2cc(-c3ccc(CC(=O)Nc4cc(C(C)(C)C(F)(F)F)no4)cn3)cnc2cc1OC` — result for “best overall response PR”: 11% (RECIST v1.1; human RET-altered solid tumours; 11 50 mg tablets, phase I).
`C[n+]1cccc(C(N)=O)c1`: “z-scored log2 fold change” 0.233 (binding, equilibrium dialysis LC-MS; 5 µM, thermostabilized A2AR-BRIL construct; relative to: no-protein control, direction not given).
`CC(C)[C@H](NC(=O)[C@H](Cc1ccc(O)cc1)NC(=O)[C@H](Cc1ccc(O)cc1)NC(=O)[C@@H]1CCCN1C(=O)[C@H](CCC(=O)O)NC(=O)[C@H](CCC(=O)O)NC(=O)[C@H](Cc1c[nH]c2ccccc12)NC(=O)[C@@H]1CCCN1C(=O)[C@@H](NC(=O)[C@H](CCC(N)=O)NC(=O)c1ccc2c(c1)C(=O)OC21c2ccc(O)cc2Oc2cc(O)ccc21)C(C)C)C(=O)N[C@H](C(=O)N[C@@H](CCCCN)C(=O)N[C@@H](CCCCN)C(=O)N[C@@H](CO)C(=O)N[C@@H](CO)C(=O)NCC(=O)NCC(N)=O)C(C)C` — result for “share of responses”: 53.8% (nerve penetration depth; human head and neck surgery, nerves; 500 mg, not improved; relative to: white light).
`O=P(O)(O)C(Cl)(Cl)P(=O)(O)O` gave an Iba1-positive area of 0.45% (immunostaining; mouse, sham-operated, meninges; dose not given, day 1; relative to: total area).
With `C[C@@H](O)CCOC(=O)C[C@@H](C)O` the metabolite level was -6.28 ± 0.49 µmol/L (measured: C14:1-OH acylcarnitine; human, plasma; 60 min, log2-transformed values).
`C[C@H](O)[C@@H](O)[C@@H](O)[C@H](O)C=O` — result for “z-scored log2 fold change”: 0.0312 (binding, equilibrium dialysis LC-MS; 5 µM, thermostabilized A2AR-BRIL construct; relative to: no-protein control, direction not given).
For `c1ccc(-c2n[nH]cc2-c2ccnc3ccccc23)nc1`, “log2 fold change” read 1.14 (kinase binding, competitor, MIB/MS competition, measured: CKA2; Candida albicans cell lysate; 1 µM; relative to: DMSO).
For `CN(C)C(=O)Oc1cccc([N+](C)(C)C)c1`, the train-of-four ratio was 98.9 (neuromuscular block reversal; rat; dose not given, 20 (unit not given), added: cisatracurium; relative to: T1 twitch).
`C[C@H](Oc1ccc(Br)cc1-c1ccon1)C(=O)O`: “difference from placebo” 10.5% (last response peak; human, tibialis anterior muscle; 200 mg, 30 Hz, single ascending dose).
For `NC(=O)c1cnc2[nH]ccc2c1N[C@@H]1[C@@H]2CC3C[C@H]1C[C@@](O)(C3)C2`, the percent change was -1.48% (CD4+ naive T cells, flow cytometry; Caucasian humans, peripheral blood; 20 mg single dose; relative to: baseline).
For `Nc1ccn([C@@H]2O[C@H](COP(=O)(O)OP(=O)(O)OCC(O)CO)[C@@H](O)[C@H]2O)c(=O)n1` (some centres unmarked), “z-scored log2 fold change” read 0.101 (binding, equilibrium dialysis LC-MS; 5 µM, thermostabilized A2AR-BRIL construct; relative to: no-protein control, direction not given).
The BV/TV of `Cc1c(C)n(Cc2cccc(OC(C)(C)C(=O)O)c2)c2ccc(C(=O)N[C@@H](C)c3ccc(C(C)(C)C)cc3)cc12` is reported as 11.1 ± 2.8% (C57BL/6 mice, diet-induced obese, L4 vertebra; dose not given).
Under “change from baseline”, `N#Cc1ccc2c(c1)[C@H]1CCCN(C(=O)c3ccc4[nH]cnc4c3)[C@H]1C2` is recorded as 8 nmol/L (measured: cortisol; human, Phase II trial; oral, 20 mg once daily, HPA axis, mean).
Under “z-scored log2 fold change”, `CC(CNC(N)=O)C(=O)O` (racemic) is recorded as 0.292 (binding, equilibrium dialysis LC-MS; 5 µM, thermostabilized A2AR-BRIL construct; relative to: no-protein control, direction not given).
For `N#Cc1ccc2c(-c3ccncc3)c(-c3ccc(F)cc3)nn2c1`, “log2 fold change” read -0.191 (kinase binding, competitor, MIB/MS competition, measured: RTK1; Candida albicans cell lysate; 1 µM; relative to: DMSO).
`CC(C(=O)O)C(=O)O` — result for “z-scored log2 fold change”: -0.0624 (binding, equilibrium dialysis LC-MS; 5 µM, thermostabilized A2AR-BRIL construct; relative to: no-protein control, direction not given).
For `CO[C@H]1CC[C@H](N2C(=O)CNc3ncc(-c4ccc(C(C)(C)O)nc4)nc32)CC1`, “pAKT change from baseline” read -39.8% (flow cytometry; stimulated monocytes, human, blood; 60 mg single dose, 1.5 h, mean; relative to: baseline).
`N#Cc1ccn2c(-c3ccncc3)c(-c3ccc(F)cc3)nc2c1` — result for “log2 fold change”: -0.169 (kinase binding, competitor, MIB/MS competition, measured: HRK1; Candida albicans cell lysate; 1 µM; relative to: DMSO).
`O=C(O)CC(C(=O)O)C(O)C(=O)O` (racemic): “z-scored log2 fold change” -0.049 (binding, equilibrium dialysis LC-MS; 5 µM, thermostabilized A2AR-BRIL construct; relative to: no-protein control, direction not given).
`OC(CCN1CCCCC1)(c1ccccc1)C1CC2C=CC1C2` (centres unmarked): “change in EEG Beta1-power Fz-Cz” -11.1% (resting-state EEG; healthy elderly humans; oral, 2 mg, eyes open, LS mean; relative to: baseline).
`Cn1cc(Nc2nccc(-c3ccc4c(c3)CN(C3COC3)CC[C@H]4NC(=O)c3cn(C(C)(C)C)nn3)n2)cn1` — result for “pathway activation z-score”: -1.13 (measured: p14/p19ARF in tumour suppression; splenic B cells, mice; 30 mg/kg, IgD-activated in vivo; relative to: vehicle, direction not given).
Under “z-scored log2 fold change”, `O=C(O)c1cccnc1C(=O)O` is recorded as 0.517 (binding, equilibrium dialysis LC-MS; 5 µM, thermostabilized A2AR-BRIL construct; relative to: no-protein control, direction not given).
`COc1cc(O)c(CC=C(C)C)c(O)c1C(=O)/C=C/c1ccc(O)cc1` — result for plasma insulin: “decreased” (male Tac:SW conventional mice; in high-fat diet, dose not given; relative to: high-fat diet alone).

For quick reference, copied from above:
For `NC(=O)c1cnc2[nH]ccc2c1N[C@@H]1[C@@H]2CC3C[C@H]1C[C@@](O)(C3)C2`, the percent change was -1.48% (CD4+ naive T cells, flow cytometry; Caucasian humans, peripheral blood; 20 mg single dose; relative to: baseline).
For `Nc1ccn([C@@H]2O[C@H](COP(=O)(O)OP(=O)(O)OCC(O)CO)[C@@H](O)[C@H]2O)c(=O)n1` (some centres unmarked), “z-scored log2 fold change” read 0.101 (binding, equilibrium dialysis LC-MS; 5 µM, thermostabilized A2AR-BRIL construct; relative to: no-protein control, direction not given).
The BV/TV of `Cc1c(C)n(Cc2cccc(OC(C)(C)C(=O)O)c2)c2ccc(C(=O)N[C@@H](C)c3ccc(C(C)(C)C)cc3)cc12` is reported as 11.1 ± 2.8% (C57BL/6 mice, diet-induced obese, L4 vertebra; dose not given).
